Measured values gathered from unrelated publications.
Every numbered part comes from another study and shows a few of its results, in no order.
Sequence of UniProt P08922 (whole entry, looked up): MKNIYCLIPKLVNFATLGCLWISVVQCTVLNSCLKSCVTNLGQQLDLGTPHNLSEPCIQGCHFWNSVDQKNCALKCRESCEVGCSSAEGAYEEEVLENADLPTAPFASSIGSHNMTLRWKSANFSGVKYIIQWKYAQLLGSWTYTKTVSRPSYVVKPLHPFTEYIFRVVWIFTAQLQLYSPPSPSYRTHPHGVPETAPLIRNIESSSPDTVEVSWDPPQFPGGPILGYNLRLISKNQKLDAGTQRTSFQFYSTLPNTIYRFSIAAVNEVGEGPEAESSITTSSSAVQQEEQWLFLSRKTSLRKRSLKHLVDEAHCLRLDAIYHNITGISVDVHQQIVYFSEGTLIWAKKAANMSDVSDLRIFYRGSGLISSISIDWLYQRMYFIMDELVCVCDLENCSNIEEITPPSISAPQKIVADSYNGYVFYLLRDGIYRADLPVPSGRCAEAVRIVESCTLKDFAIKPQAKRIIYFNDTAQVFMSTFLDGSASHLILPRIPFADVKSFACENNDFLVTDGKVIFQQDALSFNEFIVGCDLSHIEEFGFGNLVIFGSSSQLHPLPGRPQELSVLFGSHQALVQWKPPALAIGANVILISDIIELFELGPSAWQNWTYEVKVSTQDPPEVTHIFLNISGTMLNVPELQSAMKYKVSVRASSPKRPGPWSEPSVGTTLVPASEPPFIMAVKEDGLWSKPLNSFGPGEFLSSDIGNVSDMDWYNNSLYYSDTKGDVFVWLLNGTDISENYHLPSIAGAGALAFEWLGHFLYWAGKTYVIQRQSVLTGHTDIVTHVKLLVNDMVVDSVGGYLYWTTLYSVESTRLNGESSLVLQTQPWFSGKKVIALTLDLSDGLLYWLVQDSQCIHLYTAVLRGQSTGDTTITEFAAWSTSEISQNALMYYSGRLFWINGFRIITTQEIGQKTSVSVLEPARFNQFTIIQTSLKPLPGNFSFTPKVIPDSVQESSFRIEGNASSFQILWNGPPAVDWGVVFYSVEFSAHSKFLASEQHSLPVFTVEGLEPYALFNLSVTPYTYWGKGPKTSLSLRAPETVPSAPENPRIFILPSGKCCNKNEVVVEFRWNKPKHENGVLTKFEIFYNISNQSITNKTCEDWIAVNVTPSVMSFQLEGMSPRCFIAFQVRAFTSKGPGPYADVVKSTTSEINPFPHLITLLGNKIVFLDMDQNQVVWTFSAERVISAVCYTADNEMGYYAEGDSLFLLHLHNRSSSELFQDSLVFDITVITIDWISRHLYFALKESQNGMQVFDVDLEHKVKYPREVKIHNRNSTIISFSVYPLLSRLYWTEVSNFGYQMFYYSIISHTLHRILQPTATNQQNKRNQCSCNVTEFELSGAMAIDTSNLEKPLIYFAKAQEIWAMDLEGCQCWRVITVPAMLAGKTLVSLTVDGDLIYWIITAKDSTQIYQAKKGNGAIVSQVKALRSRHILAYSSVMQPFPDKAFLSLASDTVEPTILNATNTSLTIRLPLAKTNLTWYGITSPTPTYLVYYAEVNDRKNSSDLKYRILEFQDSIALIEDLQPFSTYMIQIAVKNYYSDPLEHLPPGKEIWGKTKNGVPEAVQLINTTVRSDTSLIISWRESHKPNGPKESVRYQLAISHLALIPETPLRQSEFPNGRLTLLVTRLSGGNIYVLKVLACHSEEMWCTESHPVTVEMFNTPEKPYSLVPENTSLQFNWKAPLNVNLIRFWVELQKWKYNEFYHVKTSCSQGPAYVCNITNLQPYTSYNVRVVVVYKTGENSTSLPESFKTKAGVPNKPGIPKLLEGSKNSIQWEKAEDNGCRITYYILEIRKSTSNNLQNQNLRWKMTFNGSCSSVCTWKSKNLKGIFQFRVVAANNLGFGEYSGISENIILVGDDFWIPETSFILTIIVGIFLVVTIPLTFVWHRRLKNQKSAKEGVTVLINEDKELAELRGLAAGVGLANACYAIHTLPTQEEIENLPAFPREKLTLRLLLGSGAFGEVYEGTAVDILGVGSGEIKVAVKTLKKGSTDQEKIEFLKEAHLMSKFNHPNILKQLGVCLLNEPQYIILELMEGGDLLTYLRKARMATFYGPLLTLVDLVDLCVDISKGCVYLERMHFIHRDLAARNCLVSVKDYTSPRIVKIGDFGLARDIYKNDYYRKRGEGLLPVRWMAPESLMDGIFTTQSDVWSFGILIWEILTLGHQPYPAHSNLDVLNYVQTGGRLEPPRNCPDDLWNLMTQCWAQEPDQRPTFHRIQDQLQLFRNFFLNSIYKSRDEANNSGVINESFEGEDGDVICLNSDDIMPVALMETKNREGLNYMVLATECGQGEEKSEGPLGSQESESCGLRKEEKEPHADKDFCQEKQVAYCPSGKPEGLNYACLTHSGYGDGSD
Sequence of UniProt P53667 (whole entry, looked up): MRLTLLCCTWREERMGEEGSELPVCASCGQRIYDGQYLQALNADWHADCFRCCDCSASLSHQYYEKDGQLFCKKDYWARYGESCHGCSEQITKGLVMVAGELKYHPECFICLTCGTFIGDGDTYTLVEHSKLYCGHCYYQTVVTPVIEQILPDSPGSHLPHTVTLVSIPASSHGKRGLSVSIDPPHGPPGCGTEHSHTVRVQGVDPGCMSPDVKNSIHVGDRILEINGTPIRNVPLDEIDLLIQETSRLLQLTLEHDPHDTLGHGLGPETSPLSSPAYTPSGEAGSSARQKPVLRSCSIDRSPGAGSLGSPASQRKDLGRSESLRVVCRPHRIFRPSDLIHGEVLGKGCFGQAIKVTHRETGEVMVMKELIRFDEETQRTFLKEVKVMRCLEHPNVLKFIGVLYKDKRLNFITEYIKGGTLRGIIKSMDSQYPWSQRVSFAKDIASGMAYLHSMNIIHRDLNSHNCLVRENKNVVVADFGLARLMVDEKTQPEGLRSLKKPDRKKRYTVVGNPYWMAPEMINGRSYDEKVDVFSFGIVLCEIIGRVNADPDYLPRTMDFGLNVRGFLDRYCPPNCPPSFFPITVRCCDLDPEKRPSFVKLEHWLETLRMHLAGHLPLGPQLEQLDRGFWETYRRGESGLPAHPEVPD

Set 1
Target: Fragile X messenger ribonucleoprotein 1, C-terminal low-complexity region (Fmr1, Mus musculus, UniProt P35922)
Technique: RNA Bind-n-Seq
Molecule type: RNA
Medium: in vitro
Concentration: 200 nM
Setting: whole 134-nt RNA, ends assumed
With: 150 mM LiCl
Relative to: input library
Reading: higher = stronger binding
All molecules: 7-deaza-guanosine replaces G
Constant ends, left off below: GGGAGUUCUACAGUCCGACGAUC … UGGAAUUCUCGGGUGUCAAGG
`UAACUUUAGAGGAGGAUCUGAUGGAUAUGGCAGUGGACGUGGAUUUGGGGAUGGCUAUAAUGGGUAUGGAGGAGGACCUGGAGGUGGCAA` has a log2 enrichment of -0.584.
`UGGGAGGUGGAUUUUGUCUAUUUUUUUAGCUCAUUUCCAGGGGUGGGAAUUUUUUUUUAAUAUGUGUCAUGAAUAAAGUUGUUUUUGAAA` has a log2 enrichment of -0.348.
`UCAAGUCCUGUGCUACACAUCGUAUGUACCGAAUCGGUUUGGAGGUUUUUUUGGAAAGUAUUAUGUUACGCCGUUCGGAUCUGCACUUCC` has a log2 enrichment of -0.55.
The log2 enrichment of `CACAGACAACACGCACCCACACAGACACAGAGGGAAGGGGUUGGGAUGGGGACAGGGUGCACAGCAGGGCGCGGUAGGACCCCAGCCCCU` is reported as -0.142.
`GUCCUGUGCUACACAUCGUAUGUACCGAAUCGGGGUUUGGGGUGGGGAAAAAAAGGGGAAAGUAUUAUGUUACGCCGUUCGGAUCUGCAC` gave a log2 enrichment of 0.0631.
For `CCUGUGCUACACAUCGUAUGUACCGAAUCGGGGAAAAAGGGGUUUUUUUGGGGUUUGGGGAAAGUAUUAUGUUACGCCGUUCGGAUCUGC`, the log2 enrichment was -1.95.
`UUCACACCAAGCUGGGGAACAUCAAGACCUUAAACCUGGCAGGCAACCUCCUAGAGAGUCUGAGUGGCCUGCACAAGCUCUACUCACUGG` gave a log2 enrichment of -0.804.
With `ACCAUGCAGGUGGGCAUCUUUGGGAAGUGGGGCAAGGGGGGGAUAGGGAGGGGGAAAACACUUUGGGAACAGGUGGUCCCAGGUCGUUUC` the log2 enrichment was 1.18.

Set 2
Target: Centromere-binding protein 1, full length, His-tagged (CBF1, Saccharomyces cerevisiae, UniProt P17106, residues 1-351)
Sequence of UniProt P17106 (whole entry, looked up): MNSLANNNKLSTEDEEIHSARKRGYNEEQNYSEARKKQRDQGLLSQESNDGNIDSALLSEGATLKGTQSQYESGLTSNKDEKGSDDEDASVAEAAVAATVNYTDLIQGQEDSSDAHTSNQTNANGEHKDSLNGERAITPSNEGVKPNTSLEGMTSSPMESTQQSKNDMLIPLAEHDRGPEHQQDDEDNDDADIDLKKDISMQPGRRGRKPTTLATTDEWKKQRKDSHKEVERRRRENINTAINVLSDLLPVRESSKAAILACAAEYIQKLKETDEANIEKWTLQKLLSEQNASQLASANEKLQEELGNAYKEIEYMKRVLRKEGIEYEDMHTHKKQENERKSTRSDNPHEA
Technique: competition protein-binding microarray
Molecule type: double-stranded DNA, one strand shown
Medium: in vitro
Concentration: 2 µM
Setting: whole 60-bp probe, lowest competitor level
With: Pho4 competitor, 0.05 µM
Reading: higher = stronger binding
Constant ends, left off below: … GTCTTGATTCGCTTGACGCTGCTG
`AAAGCGGTAATTTGGTATGTGGGTGCAGATATCTAT` has a fluorescence intensity of 71.4 a.u.
The fluorescence intensity of `CGTCCTAGTGATTGGTATGTGGGTGCCATGAGGAAG` is reported as 97.6 a.u.
For `GTCTTGTCTCATTGCTCCGTGGGTGTCCCCACTTCA`, the fluorescence intensity was 87.9 a.u.
For `CCGCAACTCCGCGATCGCGCGCCAAGGGCCGTCGGC`, the fluorescence intensity was 46.4 a.u.
`CTTTTCATTAGGCTTCCTAATTATACCCATCTATGC` gave a fluorescence intensity of 64.9 a.u.
With `CATACCCAACCTTGTCACTTTACTTAAGATATTTGT` the fluorescence intensity was 89.6 a.u.
With `CGATGTTCTTAATTACACGTGAATTATCAAAAACCA` the fluorescence intensity was 1190 a.u.
With `CCAAGGAAATCCCGTCACAATACGCTCCTCAGTTGA` the fluorescence intensity was 61.3 a.u.

Other studies, line by line
`Cc1ccc(-c2cnc([C@@]3(O)CC[C@H](C(=O)O)C(C)(C)C3)s2)cc1Nc1cccc(C(F)(F)F)n1` gave a Kd of greater than 10 µM (LIM domain kinase 1 (LIMK1, Homo sapiens, UniProt P53667); binding, competition with immobilised ligand).
`CN(C)CCCn1cc(C2=C(c3c[nH]c4ccccc34)C(=O)NC2=O)c2ccccc21` has a remaining activity of 62.8% (ROS1 (Homo sapiens, UniProt P08922); enzyme activity, inhibitor; 0.5 µM; relative to: control).

For quick reference, copied from above (set 1):
`UUCACACCAAGCUGGGGAACAUCAAGACCUUAAACCUGGCAGGCAACCUCCUAGAGAGUCUGAGUGGCCUGCACAAGCUCUACUCACUGG` gave a log2 enrichment of -0.804.
`GUCCUGUGCUACACAUCGUAUGUACCGAAUCGGGGUUUGGGGUGGGGAAAAAAAGGGGAAAGUAUUAUGUUACGCCGUUCGGAUCUGCAC` gave a log2 enrichment of 0.0631.
With `ACCAUGCAGGUGGGCAUCUUUGGGAAGUGGGGCAAGGGGGGGAUAGGGAGGGGGAAAACACUUUGGGAACAGGUGGUCCCAGGUCGUUUC` the log2 enrichment was 1.18.
